Measured values of several laboratories.
Protocols differ between the studies behind these lines. ± marks the error that the study gave.
UniProt P40337, sequence (whole entry, unmodified, looked up): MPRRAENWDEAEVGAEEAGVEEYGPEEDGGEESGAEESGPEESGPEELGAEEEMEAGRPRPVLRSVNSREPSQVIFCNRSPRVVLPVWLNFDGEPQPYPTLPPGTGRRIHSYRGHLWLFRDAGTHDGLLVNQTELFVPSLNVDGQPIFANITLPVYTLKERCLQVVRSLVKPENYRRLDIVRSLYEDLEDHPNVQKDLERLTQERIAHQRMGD
UniProt P35354, sequence (whole entry, looked up): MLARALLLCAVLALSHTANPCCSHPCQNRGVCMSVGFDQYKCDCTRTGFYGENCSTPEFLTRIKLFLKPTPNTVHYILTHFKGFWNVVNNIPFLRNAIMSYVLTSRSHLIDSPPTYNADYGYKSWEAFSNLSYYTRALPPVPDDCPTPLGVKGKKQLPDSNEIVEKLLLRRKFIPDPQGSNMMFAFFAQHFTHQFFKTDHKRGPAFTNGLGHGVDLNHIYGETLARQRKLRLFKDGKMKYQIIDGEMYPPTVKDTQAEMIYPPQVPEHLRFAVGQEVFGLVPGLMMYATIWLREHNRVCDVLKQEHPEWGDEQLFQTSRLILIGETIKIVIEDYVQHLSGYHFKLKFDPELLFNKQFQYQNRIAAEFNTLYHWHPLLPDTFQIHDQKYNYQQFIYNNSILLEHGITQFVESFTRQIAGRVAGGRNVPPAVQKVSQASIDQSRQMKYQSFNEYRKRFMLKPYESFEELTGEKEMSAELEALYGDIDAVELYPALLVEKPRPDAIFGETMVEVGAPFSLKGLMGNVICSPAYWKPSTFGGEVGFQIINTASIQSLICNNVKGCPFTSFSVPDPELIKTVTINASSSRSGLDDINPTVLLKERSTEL
UniProt P08546, sequence (whole entry, looked up): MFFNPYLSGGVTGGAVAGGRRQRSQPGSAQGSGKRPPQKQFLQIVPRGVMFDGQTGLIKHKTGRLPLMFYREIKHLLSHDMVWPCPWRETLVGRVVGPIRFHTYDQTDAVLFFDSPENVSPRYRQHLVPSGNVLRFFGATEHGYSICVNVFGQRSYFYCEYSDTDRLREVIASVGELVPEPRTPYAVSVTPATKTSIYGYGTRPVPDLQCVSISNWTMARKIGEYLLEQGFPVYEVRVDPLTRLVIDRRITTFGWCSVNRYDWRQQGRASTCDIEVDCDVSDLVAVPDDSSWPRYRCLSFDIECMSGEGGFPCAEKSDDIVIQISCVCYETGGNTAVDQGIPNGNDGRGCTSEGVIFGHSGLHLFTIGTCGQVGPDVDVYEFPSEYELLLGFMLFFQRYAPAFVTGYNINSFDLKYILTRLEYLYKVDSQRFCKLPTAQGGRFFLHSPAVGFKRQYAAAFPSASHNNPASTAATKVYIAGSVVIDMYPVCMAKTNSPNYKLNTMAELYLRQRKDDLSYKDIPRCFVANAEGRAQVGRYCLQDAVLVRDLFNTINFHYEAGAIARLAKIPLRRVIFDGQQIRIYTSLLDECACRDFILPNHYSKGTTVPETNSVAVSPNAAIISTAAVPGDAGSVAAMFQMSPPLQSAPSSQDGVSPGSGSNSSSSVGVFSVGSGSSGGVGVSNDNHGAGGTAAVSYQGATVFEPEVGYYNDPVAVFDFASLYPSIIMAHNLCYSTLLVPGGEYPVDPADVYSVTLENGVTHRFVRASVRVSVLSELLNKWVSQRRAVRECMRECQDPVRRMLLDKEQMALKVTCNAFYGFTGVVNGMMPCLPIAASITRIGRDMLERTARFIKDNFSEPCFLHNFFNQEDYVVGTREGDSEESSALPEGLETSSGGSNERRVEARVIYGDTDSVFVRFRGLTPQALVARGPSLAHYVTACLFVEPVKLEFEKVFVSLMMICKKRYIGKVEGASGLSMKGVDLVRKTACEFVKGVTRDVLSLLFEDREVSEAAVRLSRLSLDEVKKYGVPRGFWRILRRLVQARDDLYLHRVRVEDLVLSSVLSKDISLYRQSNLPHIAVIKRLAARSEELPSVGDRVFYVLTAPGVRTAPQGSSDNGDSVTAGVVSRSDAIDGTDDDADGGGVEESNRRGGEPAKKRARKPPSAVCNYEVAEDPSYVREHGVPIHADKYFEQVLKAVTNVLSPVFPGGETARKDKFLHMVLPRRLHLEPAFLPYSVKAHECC
UniProt Q9BZL6, sequence (whole entry, looked up): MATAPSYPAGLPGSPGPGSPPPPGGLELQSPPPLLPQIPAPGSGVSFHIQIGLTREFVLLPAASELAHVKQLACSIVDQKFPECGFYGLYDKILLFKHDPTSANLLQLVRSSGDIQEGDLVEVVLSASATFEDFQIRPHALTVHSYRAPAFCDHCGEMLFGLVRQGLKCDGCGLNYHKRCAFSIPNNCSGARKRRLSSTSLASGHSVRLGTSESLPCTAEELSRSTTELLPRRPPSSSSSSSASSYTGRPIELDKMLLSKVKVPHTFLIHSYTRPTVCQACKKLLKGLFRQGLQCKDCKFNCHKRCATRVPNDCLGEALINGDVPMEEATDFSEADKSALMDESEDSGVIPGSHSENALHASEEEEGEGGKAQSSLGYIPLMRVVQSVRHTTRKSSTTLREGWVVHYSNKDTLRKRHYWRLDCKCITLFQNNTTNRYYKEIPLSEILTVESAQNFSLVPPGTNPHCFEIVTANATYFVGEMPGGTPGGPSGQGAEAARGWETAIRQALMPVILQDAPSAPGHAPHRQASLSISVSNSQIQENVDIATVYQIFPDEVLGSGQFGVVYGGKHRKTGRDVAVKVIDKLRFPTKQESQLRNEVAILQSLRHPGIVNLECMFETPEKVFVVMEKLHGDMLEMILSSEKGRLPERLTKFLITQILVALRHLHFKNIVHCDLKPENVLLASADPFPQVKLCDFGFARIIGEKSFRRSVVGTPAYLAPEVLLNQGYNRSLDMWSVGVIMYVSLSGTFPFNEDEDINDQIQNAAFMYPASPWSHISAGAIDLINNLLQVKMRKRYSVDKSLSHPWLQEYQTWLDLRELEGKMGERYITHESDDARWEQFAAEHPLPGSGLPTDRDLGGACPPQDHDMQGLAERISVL
UniProt P52701, sequence (whole entry, looked up): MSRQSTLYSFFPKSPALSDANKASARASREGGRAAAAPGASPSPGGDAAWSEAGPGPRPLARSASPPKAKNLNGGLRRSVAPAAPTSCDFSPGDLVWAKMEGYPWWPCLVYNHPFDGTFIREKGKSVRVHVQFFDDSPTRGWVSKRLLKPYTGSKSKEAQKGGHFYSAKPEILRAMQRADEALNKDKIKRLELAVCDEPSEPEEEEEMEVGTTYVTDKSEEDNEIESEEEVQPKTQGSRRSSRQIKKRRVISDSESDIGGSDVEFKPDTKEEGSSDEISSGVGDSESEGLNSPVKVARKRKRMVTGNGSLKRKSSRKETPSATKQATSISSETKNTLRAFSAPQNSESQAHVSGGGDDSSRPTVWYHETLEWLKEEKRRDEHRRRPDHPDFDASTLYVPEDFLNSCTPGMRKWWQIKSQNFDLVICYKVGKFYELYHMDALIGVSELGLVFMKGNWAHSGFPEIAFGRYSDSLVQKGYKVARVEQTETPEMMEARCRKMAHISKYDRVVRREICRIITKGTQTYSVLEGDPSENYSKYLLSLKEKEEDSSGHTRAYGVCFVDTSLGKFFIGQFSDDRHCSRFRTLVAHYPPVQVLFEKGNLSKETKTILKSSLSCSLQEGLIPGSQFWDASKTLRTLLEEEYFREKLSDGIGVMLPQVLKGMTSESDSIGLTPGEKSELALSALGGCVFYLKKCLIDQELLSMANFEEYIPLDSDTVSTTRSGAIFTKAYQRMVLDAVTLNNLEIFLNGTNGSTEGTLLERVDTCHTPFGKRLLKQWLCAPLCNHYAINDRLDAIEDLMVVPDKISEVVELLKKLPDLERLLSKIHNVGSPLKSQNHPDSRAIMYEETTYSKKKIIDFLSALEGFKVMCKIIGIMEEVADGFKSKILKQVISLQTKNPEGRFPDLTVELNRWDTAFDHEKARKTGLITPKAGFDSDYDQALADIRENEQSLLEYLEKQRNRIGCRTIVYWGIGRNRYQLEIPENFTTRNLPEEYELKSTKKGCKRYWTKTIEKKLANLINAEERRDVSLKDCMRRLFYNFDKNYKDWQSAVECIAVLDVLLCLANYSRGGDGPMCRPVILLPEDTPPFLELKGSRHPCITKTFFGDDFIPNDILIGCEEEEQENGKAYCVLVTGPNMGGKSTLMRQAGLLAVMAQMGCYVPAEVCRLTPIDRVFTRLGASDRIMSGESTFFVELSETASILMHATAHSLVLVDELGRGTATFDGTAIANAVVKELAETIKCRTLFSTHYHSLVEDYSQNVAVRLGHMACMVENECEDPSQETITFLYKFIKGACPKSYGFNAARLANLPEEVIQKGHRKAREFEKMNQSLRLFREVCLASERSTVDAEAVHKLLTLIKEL

With O=C(O)c1ccc(Nc2ncc3c(n2)-c2ccc(Cl)cc2C(c2c(F)cccc2F)=NC3)cc1 the remaining activity was 110% (GRK6(h); kinase activity; 1 µM).
For CC1(F)CN(C(=O)Cn2c(=O)c(C(=O)NCc3ccc(Cl)cc3)cc3nc(N4CCCC4=O)cnc32)C1, the Hill slope was 0.93 (DNA polymerase catalytic subunit (Human cytomegalovirus, UniProt P08546); enzyme activity, inhibitor).
CC(=O)N[C@H](C(=O)N1C[C@H](O)C[C@H]1C(=O)NCc1ccc(-c2scnc2C)cc1)C(C)(C)SCCCCCCNC(=O)C[C@@H]1N=C(c2ccc(Cl)cc2)c2c(sc(C)c2C)-n2c(C)nnc21 gave a −TΔS of -2.2 ± 0.5 kcal/mol (von Hippel-Lindau disease tumor suppressor, with elongin B/C (VHL, Homo sapiens, UniProt P40337); ITC; 25 °C, binary).
OC[C@H]1O[C@@H](Oc2cc3c(O)cc(O)cc3[o+]c2-c2cc(O)c(O)c(O)c2)[C@H](O)[C@@H](O)[C@@H]1O: “binding enthalpy change” -7.02 kcal/mol (Albumin (ALB, Homo sapiens, UniProt P02768); van't Hoff analysis; concentration not given).
CCCCC[C@H](O)/C=C/[C@H]1C(=O)C[C@H](O)[C@@H]1C/C=C\CCCC(=O)O gave an Emax of 82 ± 7% (PTGDR (Homo sapiens, UniProt Q13258, K76R); Gs protein activation, agonist, BRET).
Under “number of off-targets hit”, O=C(Nc1cnccc1Cl)N1CCN(Cc2ccc3c(c2)OC(F)(F)O3)CC1 is recorded as 7 (human off-target panel; 50 µM).
CC1=C(/C=C/C(C)=C/C=C/C(C)=C/C=O)C(C)(C)CCC1 gave a relative koff of 1.81 ± 0.02 (Rhodopsin (RHO, Bos taurus, UniProt P02699, I189A); retinal release, Trp FRET; lipid bicelles; 28 °C, I189A mutant; relative to: wild-type rhodopsin).
Cc1cccc(N2CC(C(=O)O)CC2=O)c1 (stereo not shown) has a fold enrichment of 0.897 (DNA mismatch repair protein Msh6 (Homo sapiens, UniProt P52701); binding, affinity selection mass spectrometry; relative to: other proteins in batch).
The remaining binding of C=CC(=O)N1CCC(COCC(=O)N2CCN(c3nc(-c4cnc(N)nc4C(F)F)nc(N4CCOC[C@@H]4C)n3)CC2)CC1 is reported as 94% (PRKD2 (Homo sapiens, UniProt Q9BZL6); KINOMEscan; 1 µM).
NCCS(=O)(=O)O — result for “normalised MST signal”: -0.0176 (SLC6A6 (Homo sapiens, UniProt P31641, Y138A); binding, microscale thermophoresis; 488 nM, room temperature, with: 50 nM labelled protein; higher = more binding).
Cc1ccc(S(=O)(=O)[N](Nc2ccc([N+](=O)[O-])cc2[N+](=O)[O-])[Sn]([Cl])[Cl])cc1 gave a selectivity ratio of 16.7 (PTGS2 (Homo sapiens, UniProt P35354); relative to: COX-1 IC50 over COX-2 IC50).
Cc1nc(CSc2nc(SCc3ccc(C(C)C)cc3)nc(=O)[nH]2)cs1 has a decatenated DNA of 99.8% (TOP2A (Homo sapiens, UniProt P11388); DNA decatenation, inhibitor, gel-based decatenation; 1.95 µM).
For CC(=O)Nc1ccc(O)cc1, “chemical shift change” read -0.018 ppm (BRD4 (Homo sapiens, UniProt O60885); 19F NMR, item: tyrosine 65; 375 µM; relative to: free protein).
CCC/C=C/C=O gave a relative fluorescence of 67.8% (uncharacterized protein (Spodoptera exigua, UniProt F1CEY0); binding, 1-NPN competitive displacement; protein 2.0 µM, with: 1-NPN 20 µM; relative to: 1-NPN without compound, lower = stronger binding).
COc1cc2c(cc1OC)-c1cc3ccc(OC)c(OC)c3c[n+]1CC2 has a Vmax of 0.098 ΔA/min (lipase; inhibitor, Lineweaver-Burk; 0.1 mM).
For N[C@H](CNC(=O)c1cc(Br)c(-c2ccccc2Br)s1)C(=O)O, the Hill slope was 1.37 (Glutamate receptor ionotropic, NMDA 1, with GluN2A (Grin1, Rattus norvegicus, UniProt P35439); with: glutamate 300 µM).

Some of these lines once more:
CC(=O)N[C@H](C(=O)N1C[C@H](O)C[C@H]1C(=O)NCc1ccc(-c2scnc2C)cc1)C(C)(C)SCCCCCCNC(=O)C[C@@H]1N=C(c2ccc(Cl)cc2)c2c(sc(C)c2C)-n2c(C)nnc21 gave a −TΔS of -2.2 ± 0.5 kcal/mol (von Hippel-Lindau disease tumor suppressor, with elongin B/C (VHL, Homo sapiens, UniProt P40337); ITC; 25 °C, binary).
OC[C@H]1O[C@@H](Oc2cc3c(O)cc(O)cc3[o+]c2-c2cc(O)c(O)c(O)c2)[C@H](O)[C@@H](O)[C@@H]1O: “binding enthalpy change” -7.02 kcal/mol (Albumin (ALB, Homo sapiens, UniProt P02768); van't Hoff analysis; concentration not given).
